Experimental data from different studies.
A part holds a random share of what one study measured.

Set 1
Target: RING finger protein unkempt homolog, zinc fingers 1-6, GST-SBP tag (UNK, Homo sapiens, UniProt Q9C0B0, residues 30-357)
Technique: RNA Bind-n-Seq
Form: RNA
Medium: in vitro
Tested at: not given
Setting: RNA with constant flanks, human-mouse chimeric sites, ends assumed
Baseline: input RNA pool
Direction: higher = stronger binding
Shared flanks, not repeated: GGGAGUUCUACAGUCCGACGAUC … CAACAGAGGAUUGAGCAUCA
Residues (chain): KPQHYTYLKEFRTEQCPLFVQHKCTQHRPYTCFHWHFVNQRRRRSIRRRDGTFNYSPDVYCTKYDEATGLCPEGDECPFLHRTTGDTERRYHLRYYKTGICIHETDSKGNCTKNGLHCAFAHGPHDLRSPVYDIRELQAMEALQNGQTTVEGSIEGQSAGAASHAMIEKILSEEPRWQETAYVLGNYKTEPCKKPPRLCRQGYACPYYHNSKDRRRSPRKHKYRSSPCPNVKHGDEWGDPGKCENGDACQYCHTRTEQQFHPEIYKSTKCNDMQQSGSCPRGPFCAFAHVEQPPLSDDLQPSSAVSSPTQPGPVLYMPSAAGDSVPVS
Oligonucleotide	bound/input enrichment
GGCCUGGGACCGUCCUGGGCUAGUACAAUAGCGGCAGGUGGAGGCUCAGAGGAAAGUUUUGUUAGUGGAGGCAGUGGUAGAGGCCGUCAUGUACGGUCCUUUACUCGAUAGAUGUGUUCU	0.639 ratio
UUUGUAUUUAUGCUAAGCACACGUGCUGGUGGUCUUGGCAUCAAUCUUGCAACUGCUGAUGUAGUCAUUUUAUAUGACUCAGAUUGGAAUCCGCAAGUUGAUCUUCAGGCUAUGGACCGU	0.18 ratio
GUGACUGGUGUUAAGAUUUCCCCUCAGCAAAGAAGUGCAGUAGUCACCAUAAUUCCAUCUGUGGUGAGUGCCAGUCAGAUAAAAGAGCUGGUCCCAGACCUCAGUUUAGAUACUGGGACU	0.227 ratio
UCUGGUCACACUCGUGUGUAUGGUGUUUGCUUUGUGGACACUUCACUGGGCAAGUUUUUCAUCGGCCAGUUUUCAGAUGACCGCCACUGUUCCAGAUUUAGGACUCUAGUGGCUCACUAU	0.145 ratio
AUUGUUGAAGCGAAUCCACUUUUAGAAGCAUUUGGAAAUGCGAAGACUGUUCGCAACAAUAAUAGCAGUCGAUUUGGAAAAUUUGUAGAAAUACAUUUCAAUGAAAAGAGUUCGGUUGUU	0.245 ratio
CGCUUGGAUGAGGCGGGUGUCACAGAUGAAGUGCUGGAUUCUGCCAUGCAAGCCUUCCUUCUGGAGGUUAUCGUUAAACAUGGGGAGCCGGCACCUUAUUUAUGUAACAAAGAUCCGUUU	0.0679 ratio
AUGGAACAUUUCGAUGCGUCACUCAGUACCUAUUUCAAGGCCUUCCUGGGCCCCCGAGAUACUAGAGUCAAAGGAUGGUUUCUUCUGGACAAUUACAUCCCUACGUUUGUCUGUUCUGUU	0.0961 ratio
GUUCGGCUUUGGGAUCAUGCCACAAUGACAGAAGUGAAAUCUCUGAAUUUUAAUAUGUCUGUUAGCAGCAUGGAGUAUAUUCCUGAGGGAGAGAUUUUGGUUAUUACUUAUGGACGAUCU	0.52 ratio
CUUAAUGUUAAUAUUUUUGAAUAAAUGAAGCUAAAAUGUCUGCUUUUGGUACAACACGCAUUAGCGAAAGGUUAAGUUUUGUUUUCCACUGAAGUACUAUUUAACAUCUCAGAAAAAAAC	0.941 ratio
GUAUUUGUGCGCUCCCCACUCGUGUUUUUAAGUGUAUUUUUAUAAGAUACAUGUAUUUACAAUUGAGCUUUUGUUACAUAAUGCUGAAAUGCUACUGGAGAUUAUGAAAAAUGUUUCAAU	0.127 ratio
UAACCACAUCAAGAUGGUUGGAAAGCUGAAGCAGAACUUACUCUUGGCGUGUCUGGUGAUUAGUUCUGUGACCGUGUUUUACCUGGGCCAGCAUGCCAUGGAGUGCCAUCACCGAAUAGA	0.256 ratio

Set 2
Target: Histone acetyltransferase KAT6A, winged helix 2, GST fusion (KAT6A, Homo sapiens, UniProt Q92794, residues 85-181)
Technique: protein binding microarray
Form: double-stranded DNA, one strand shown
Medium: in vitro
Tested at: not given
Setting: 8-mer, flanks averaged, mean of 2 arrays, mostly near background
Baseline: not given
Direction: higher = stronger binding
Target sequence (chain): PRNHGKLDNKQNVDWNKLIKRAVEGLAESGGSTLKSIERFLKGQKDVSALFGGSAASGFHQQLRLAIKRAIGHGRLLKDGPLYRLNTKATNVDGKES
Oligonucleotide	E-score
ATTATGCA	-0.0877
CAGTAGAG	-0.0848
CCCTTCCA	0.0813
ACATCGGA	-0.0169
AAAATGGT	0.0114
AACAGATC	0.049
CGATGGAC	0.0974
GCTACGTA	-0.114
CTCTCGAA	-0.0253
CCGTGGAA	0.0505
CATAATCG	-0.0596
ACAAAGAG	0.0256
CAGGGACG	0.0034
ACCTTTAT	-0.242
AGTTGCAC	-0.0171
CAGTGAAC	-0.00361
CGAACCTA	-0.00503
GAAACATA	-0.0307
TTGTAAAA	0.00089
ACACGTCC	-0.223
AACGGCAA	0.0257
GAGGAATC	0.00642
AGCATGGG	-0.104
CGTCGACG	0.0377

Set 3
Target: Ras GTPase-activating protein-binding protein 1, RRM domain (G3BP1, Homo sapiens, UniProt Q13283)
Sequence of UniProt Q13283 (whole entry, looked up): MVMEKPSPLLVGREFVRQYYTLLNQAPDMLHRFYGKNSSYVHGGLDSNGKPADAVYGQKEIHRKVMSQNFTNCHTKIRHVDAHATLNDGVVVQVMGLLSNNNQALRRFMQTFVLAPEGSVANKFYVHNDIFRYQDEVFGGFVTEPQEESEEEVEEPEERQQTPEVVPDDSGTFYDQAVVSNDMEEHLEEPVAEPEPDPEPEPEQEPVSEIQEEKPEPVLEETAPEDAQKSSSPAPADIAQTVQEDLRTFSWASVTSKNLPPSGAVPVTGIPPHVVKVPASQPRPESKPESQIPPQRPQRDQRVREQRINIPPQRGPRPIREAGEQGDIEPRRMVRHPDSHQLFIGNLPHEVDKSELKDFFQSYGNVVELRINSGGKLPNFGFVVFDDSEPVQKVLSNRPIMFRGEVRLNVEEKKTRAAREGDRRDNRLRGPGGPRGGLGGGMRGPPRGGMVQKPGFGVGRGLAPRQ
Technique: RNA Bind-n-Seq
Form: RNA
Medium: in vitro
Tested at: 1 µM
Setting: whole 134-nt RNA, ends assumed
Together with: 150 mM KCl
Baseline: input library
Direction: higher = stronger binding
Shared flanks, not repeated: GGGAGUUCUACAGUCCGACGAUC … UGGAAUUCUCGGGUGUCAAGG
Oligonucleotide	log2 enrichment
AGUCCUGUGCUACACAUCGUAUGUACCGAAUCGGGUUUUGGGGUUUUGGUUUUGGGGAAAGUAUUAUGUUACGCCGUUCGGAUCUGCACU	-0.0713
CCUCAAGUCCUGUGCUACACAUCGUAUGUACCGAAUCGGCCGGCCGGCCGGGAAAGUAUUAUGUUACGCCGUUCGGAUCUGCACUUCCAG	-0.646
GUCCUGUGCUACACAUCGUAUGUACCGAAUCAAAUUUUUAAACCCAAACCCCCCCAAAAAAGUAUUAUGUUACGCCGUUCGGAUCUGCAC	-0.662
AAGUCCUGUGCUACACAUCGUAUGUACCGAAUCGGUUUUUGGUUUUUGGAAAAAGGAAAGUAUUAUGUUACGCCGUUCGGAUCUGCACUU	-0.13
AAGUCCUGUGCUACACAUCGUAUGUACCGAAUCGGAAAAGGGAAAAGGAAAAGGGGAAAGUAUUAUGUUACGCCGUUCGGAUCUGCACUU	-0.213
ACCAUGCAGGUGGGCAUCUUUGGGGAGUGGGGCAAGGGGGGGAUAGGGAGGGGGGUAACACUUUGGGAACAGGUGGUCCCAGGUCGUUUC	-0.364
CCUGUGCUACACAUCGUAUGUACCGAAUCGGGGAAAGGGGAAAAAAAGGGGAAAAAGGGGAAAGUAUUAUGUUACGCCGUUCGGAUCUGC	0.591
CACAGACAACACGCACCCACACAGACACAGAGGGAAGGGGUUGGGAUGGGGACAGGGUGCACAAAAGGGCGGGGUAGGACCCCAGCCCCU	-0.0932
CUCAAGUCCUGUGCUACACAUCGUAUGUACCGAAUCGGUUUGGAAAGGAAAGGAAAGUAUUAUGUUACGCCGUUCGGAUCUGCACUUCCA	-0.121
ACCAUGCAGGUGGACAUCUUUGGGAAGUGGGGCAAGGGGGGGAUAGGGAGGGGGGUAACACUUUGGGAACAGGUGGUCCCAGGUCGUUUC	-0.501
UCCUGUGCUACACAUCGUAUGUACCGAAUCGGGGUUUUUUUGGGGAAAAAGGGGAGGGGAAAGUAUUAUGUUACGCCGUUCGGAUCUGCA	0.491
UGGGAGGUGGAUUUUGUUUAUUUUUUUAGCUCAUUUCCAGGGGUGGGAAUUUUUUUUUAAUAUGUGUCUUGAAUAAAGUUGUUUUUGAAA	2.05
AGUCCUGUGCUACACAUCGUAUGUACCGAAUCGGGGAAAAGGGGAAAAGGGAAAAGGAAAGUAUUAUGUUACGCCGUUCGGAUCUGCACU	-0.0379
UGGGAGGUGGAUUGUGUUUAUUUUUUUAGCUCAUUUCCAGGGGUGGGAAUUUUUUUUUAAUAUGUGUCAUGAAUAAAGUUGUUUUUGAAA	1.91

Set 4
Target: RNA binding protein fox-1 homolog 2, RRM domain, GST-SBP tag (RBFOX2, Homo sapiens, UniProt O43251-10, residues 100-194)
Technique: RNA Bind-n-Seq
Form: RNA
Medium: in vitro
Tested at: 365 nM
Setting: natural RNA segment, single round, ends assumed
Baseline: no-protein control
Direction: higher = stronger binding
Shared flanks, not repeated: GGGAGUUCUACAGUCCGACGAUC … UGGAAUUCUCGGGUGCCAA
Residues (chain): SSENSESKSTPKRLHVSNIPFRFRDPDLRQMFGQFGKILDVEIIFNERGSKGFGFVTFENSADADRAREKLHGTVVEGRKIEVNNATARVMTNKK
Oligonucleotide	RBNS enrichment (R)
CACUGAGGUCAUUGUUUAGAGCAGAUCUCAAGCAGCCGUUUGGCCACGCCAUAUCCUUUGUGGAGCAUAGUGGGUUAUCUAUCUGUCUGUCUGUCUAUGUAUCUGUCUAU	0.318
GUGAACGCCAGCGGCGGCCGACUUCUAUCCCAAGCACUGCGCAAAAGCAGAGGAACGGAAAGGGAAAGGGCCAGGUCAUCCUCAGCCACAUAGUGAGUCCAAGGUCGGCC	0.243
CAUAAAGUUACAGUUUGAUACAGGAAUUAUUAGGAGUAAUUCUUUUCUGUUUCUGUUUAUAAUGAAGAACACUGUAGCUACAUUUUCAGAAGUUAACAUCAAGCCAUCAA	0.541
ACCUCCAGCUGACCAUGCAUGCCACGUGGCUGGCUGGGUCCUCUGCCCUCUCUGGAGUUUGCCUCCCCCAGCCCCCUCCCCAUCAAUAAAACUCUGUUUACAACCACCGG	3.43
UGGCCUCAAUUCCGACCUGAGCCCCGGCCACUUUUAGGCCAUCCUCGGACUUGUCGCCCCUUCCCAGCCCCCUCAGCGUGAUCCUCAGGGUCCUUGGUCUCUUCAGGCCC	0.377
CGAAAAACAGAGCCUCCUAGAUGUAACAUUCCUGAUCAAGGUACAAUUCUUUAAAAUUCACUAAUGAUUGAGGUCCAUAUUUAGUGGUACUCUGAAAUUGGUCACUUUCC	0.303
CAUACAACCUAGAAAAUGUUUAAUCACAUCAUUACGUUUCUUUUAUAUAGAAGCAUAAAGAGUUGUGGAUCAGUAGCCAUUUUAGUUACUGGGGGUGGGGGGAAGGAACA	0.341
UUUGUUUAUUAACCUUUCCGUGUUUAAUGAAAACAAACAGGGAUAAAUAAAGUCUUGAGUUCCUGGAUAACACUGAAGAACGUGAUCAGAGAUAACAUAGUGUGACUUGU	0.584
UAAUUUUCCUGUCUCUUUUUUUUGUAAAUUUUAUGUACAGAUUUGAUUUUUCAUAGUUUUAACUAGAUUUCCAAGAUAUUUUGUGCAUUUGUUUCAACUGAAUUUUGGUG	0.649
AUGGAAUGUGAGCCACAUCUGUACUCUAAACUUUCCUAAUAACUGUGUUAAACAAGAACAACAAAAAAAGGUCUCAUUGUGUAGCCCUAGCUGCUUAUAACUCGCUCUGU	0.318
UCUGGGAAACCAUCCUUCCAAAACGGAAUCUAUGUAGACAAUGGGACGUUAGGCAGAGAGCUCAGAUGGCCCUUUUAAGGGGGCUCCAAGAACCAACAUCACUGCUCUUU	0.352
UGAAGCAGGUCACCAUGCUUGCAAAUUAAGUUUCAGCAGCUCUACCUCCUGGCAGAAGGACUGAGUCCAAAUCGCAUGCAGUGCACGUUGAAGUUUUCAGAAGCAUGGGC	5.96

A few entries again (set 1):
Oligonucleotide	bound/input enrichment
UCUGGUCACACUCGUGUGUAUGGUGUUUGCUUUGUGGACACUUCACUGGGCAAGUUUUUCAUCGGCCAGUUUUCAGAUGACCGCCACUGUUCCAGAUUUAGGACUCUAGUGGCUCACUAU	0.145 ratio
AUUGUUGAAGCGAAUCCACUUUUAGAAGCAUUUGGAAAUGCGAAGACUGUUCGCAACAAUAAUAGCAGUCGAUUUGGAAAAUUUGUAGAAAUACAUUUCAAUGAAAAGAGUUCGGUUGUU	0.245 ratio
CGCUUGGAUGAGGCGGGUGUCACAGAUGAAGUGCUGGAUUCUGCCAUGCAAGCCUUCCUUCUGGAGGUUAUCGUUAAACAUGGGGAGCCGGCACCUUAUUUAUGUAACAAAGAUCCGUUU	0.0679 ratio
AUGGAACAUUUCGAUGCGUCACUCAGUACCUAUUUCAAGGCCUUCCUGGGCCCCCGAGAUACUAGAGUCAAAGGAUGGUUUCUUCUGGACAAUUACAUCCCUACGUUUGUCUGUUCUGUU	0.0961 ratio
GUUCGGCUUUGGGAUCAUGCCACAAUGACAGAAGUGAAAUCUCUGAAUUUUAAUAUGUCUGUUAGCAGCAUGGAGUAUAUUCCUGAGGGAGAGAUUUUGGUUAUUACUUAUGGACGAUCU	0.52 ratio
CUUAAUGUUAAUAUUUUUGAAUAAAUGAAGCUAAAAUGUCUGCUUUUGGUACAACACGCAUUAGCGAAAGGUUAAGUUUUGUUUUCCACUGAAGUACUAUUUAACAUCUCAGAAAAAAAC	0.941 ratio
GUAUUUGUGCGCUCCCCACUCGUGUUUUUAAGUGUAUUUUUAUAAGAUACAUGUAUUUACAAUUGAGCUUUUGUUACAUAAUGCUGAAAUGCUACUGGAGAUUAUGAAAAAUGUUUCAAU	0.127 ratio
